Published values of several laboratories.
Every numbered part comes from another study and shows a few of its results, in no order. Positions count from the first letter of the parent shown.

Set 1
Target: CREB5, bZIP domain (human)
Technique: DHFR protein complementation
Medium: yeast
Setting: single substitutions, most at no-binding floor
Relative to: wild-type JUN-FOS pair
Reading: higher = stronger binding
Quantity: binding fitness
Parent: JUN, bZIP domain (human); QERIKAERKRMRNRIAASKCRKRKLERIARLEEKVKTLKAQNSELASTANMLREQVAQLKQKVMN; partner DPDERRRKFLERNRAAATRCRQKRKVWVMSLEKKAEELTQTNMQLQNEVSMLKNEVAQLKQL
R53G: -1.28 natural log
K34F: -0.676 natural log
E54I: -0.473 natural log
R30Y: -0.273 natural log
S43Q: -0.135 natural log
E33K: -0.512 natural log
K39T: -0.146 natural log
A40C: -0.501 natural log
L52G: -1.4 natural log
T48W: -0.765 natural log
K36W: -0.744 natural log
R30P: -0.778 natural log
K36I: -0.482 natural log
T48P: -1.38 natural log
K34M: -0.435 natural log
L45A: -1.17 natural log
L59R: -1.38 natural log
A40Q: -0.0578 natural log

Set 2
Target: CRIPT, C-terminal peptide
Technique: DHFR complementation, deep sequencing
Medium: yeast
Setting: single substitutions, model-inferred values
Relative to: wild type
Reading: higher = weaker binding
Quantity: binding free energy change
Parent: ERBIN, PDZ domain 1 (human); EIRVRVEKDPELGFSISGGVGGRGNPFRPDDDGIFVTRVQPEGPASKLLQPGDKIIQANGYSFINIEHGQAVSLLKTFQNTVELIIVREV; partner TKNYKQTSV
P10A: -0.54 kcal/mol
R3T: -0.275 kcal/mol
S73G: 0.0587 kcal/mol
Q50P: 0.0363 kcal/mol
S62E: -0.00668 kcal/mol
P29H: -0.0015 kcal/mol
V87W: -0.0168 kcal/mol
H68T: 1.32 kcal/mol
P26Q: 0.721 kcal/mol
G21L: 0.235 kcal/mol

Set 3
Target: CCND3, cyclin fold, Cln2 fusion (human)
Technique: yeast growth competition, sequencing
Medium: yeast
Setting: weak parent motif
Relative to: not given
Reading: higher = stronger binding
Quantity: normalised enrichment score
Parent: ORC1 docking peptide (human); PRARKRLELGNLG
K5D: 0.0925
L12H: 0.199
L9Y: 0.141
R6H: 0.115
R6Q: 0.138
R6W: 0.105
L12I: 0.0164
K5T: 0.06
R4H: 0.183
G13E: 0.131
L9T: 0.124
R6M: 0.119
R6T: 0.0999
P1H: 0.124
K5W: 0.106
L12F: 0.0764
P1T: 0.109
R6C: 0.0995
L9M: 0.188
R2D: 0.133
N11E: 0.067
G10L: 0.164
G13M: 0.194
L12P: 0.14
A3F: 0.153

Set 4
Target: Interferon regulatory factor 5, full length, phosphomimetic (IRF5, Homo sapiens, UniProt Q13568-2, residues 1-514, S451D/S453D/S456D/S462D)
Technique: protein-binding microarray
Molecule type: double-stranded DNA, one strand shown
Medium: in vitro
Concentration: 940 nM top
Setting: 60-bp whole probe
With: salmon DNA 0.4 mg/ml
Relative to: random background probes
Reading: higher = stronger binding
Quantity: fitted relative affinity
All sequences stand within: GCCTAGCAC … GTCTTGATTCGCTTGACGCTGCTG
TCACATTTTAGTTTTCAACTGTGCTAG: 0.902 z-score
TTAGGTCCCGGTATCGGTTAGTGCTAG: 4.73 z-score
GACGGTCTCGGTCTCGGGAGGTGCTAG: 3.99 z-score
TGAGGTTTCGGTATCGGTTAGTGCTAG: 12.8 z-score
TTAGATTTCAGTTCCGATAAGTGCTAG: 1.64 z-score
GACGATTTCGGGTATCGAGATGTGCTA: 1.4 z-score
GTAGGACTGGGACTGGGTTAGTGCTAG: -0.427 z-score
CTTTTATTTTTTTTATTTATGTGCTAG: 2.18 z-score
GACGATATCGGGACTGGAGATGTGCTA: -0.322 z-score
TGGACTGCACAAGGGCCAGTGTGCTAG: -0.578 z-score
TTCTGAATGCCCTTCCATCACGTGCTA: 0.303 z-score
TCACATTTTTTTTTTCAACTGTGCTAG: 1.77 z-score
GACGGTTTCAACTATCGGGACGTGCTA: 2.5 z-score
TTAGATATCGGGTTTCGATTCGTGCTA: 4.7 z-score

Set 5
Target: TAR DNA-binding protein 43, full length, His tag (TARDBP, Homo sapiens, UniProt Q13148, residues 1-414)
Technique: RNA Bind-n-Seq
Molecule type: RNA
Medium: in vitro
Concentration: 20 nM
Setting: 6-mer, flanks averaged, single round
With: 150 mM KCl
Relative to: input library
Reading: higher = stronger binding
Quantity: 6-mer enrichment (R)
GGUACG: 1.81
AAUACU: 0.619
ACCUAU: 0.595
GUAUCA: 0.632
CGGCUG: 1.39
UAAAAA: 0.883
CGGGGU: 3.46
UUGUGA: 0.826
CGUGGC: 1.37
CGGGCA: 2.2
CUUCGU: 0.561
AUCAUU: 0.55
GUGUUA: 0.928
AAAUAG: 0.693
UACAAU: 0.663
UCCACU: 0.571
UUGGAA: 0.786
UAGAGG: 1.75
AGUUAG: 0.811

Set 6
Target: Sal-like protein 4, full length isoform A (SALL4, Homo sapiens, UniProt Q9UJQ4, residues 1-1053)
Chain of UniProt Q9UJQ4 (whole entry, looked up): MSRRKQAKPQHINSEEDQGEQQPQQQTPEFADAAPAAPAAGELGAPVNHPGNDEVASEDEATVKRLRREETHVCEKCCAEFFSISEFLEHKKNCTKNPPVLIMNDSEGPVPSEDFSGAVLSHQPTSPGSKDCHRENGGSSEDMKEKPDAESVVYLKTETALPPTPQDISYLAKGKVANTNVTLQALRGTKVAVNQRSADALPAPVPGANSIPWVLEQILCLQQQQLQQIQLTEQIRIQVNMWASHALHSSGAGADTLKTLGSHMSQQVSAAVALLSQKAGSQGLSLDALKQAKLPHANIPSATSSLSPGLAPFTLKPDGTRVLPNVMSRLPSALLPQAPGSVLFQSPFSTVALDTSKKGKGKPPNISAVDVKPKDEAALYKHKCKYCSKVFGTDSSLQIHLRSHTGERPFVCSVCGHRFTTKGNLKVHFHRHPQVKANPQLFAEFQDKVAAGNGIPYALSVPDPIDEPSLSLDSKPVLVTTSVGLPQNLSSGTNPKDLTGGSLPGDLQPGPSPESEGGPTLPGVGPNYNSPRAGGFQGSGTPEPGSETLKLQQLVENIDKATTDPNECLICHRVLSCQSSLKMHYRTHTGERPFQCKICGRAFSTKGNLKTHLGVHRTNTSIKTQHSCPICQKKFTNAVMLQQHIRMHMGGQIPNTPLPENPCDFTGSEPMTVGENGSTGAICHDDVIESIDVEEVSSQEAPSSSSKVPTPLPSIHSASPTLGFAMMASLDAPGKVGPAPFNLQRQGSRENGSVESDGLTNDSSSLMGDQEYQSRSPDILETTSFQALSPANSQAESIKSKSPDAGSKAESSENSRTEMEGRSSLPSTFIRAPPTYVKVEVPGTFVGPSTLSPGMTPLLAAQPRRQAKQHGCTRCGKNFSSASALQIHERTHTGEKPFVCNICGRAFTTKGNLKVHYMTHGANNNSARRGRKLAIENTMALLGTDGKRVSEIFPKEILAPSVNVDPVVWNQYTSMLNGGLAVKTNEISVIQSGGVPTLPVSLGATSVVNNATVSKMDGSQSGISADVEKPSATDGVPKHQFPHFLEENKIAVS
Technique: universal PBM
Molecule type: double-stranded DNA, one strand shown
Medium: in vitro
Concentration: 600 nM
Setting: 8-mer, flanks averaged, mean of replicates
Reading: higher = stronger binding
Quantity: E-score
AGGGGGTG: -0.372
AACTGGAC: -0.0875
CTGGTTGC: -0.138
AATTGCAG: 0.15
ACGTCTGG: -0.0402
ACGTCGTG: -0.00771
AGTGATTA: 0.172
GGGGCAAC: -0.25
TCTAGACA: 0.0967
ATTCCGGA: 0.0974
CACGCCAG: -0.348
CTACGGCC: -0.319
ACAACCCC: -0.229
CTTCCCCA: -0.202
CTTTAGCA: -0.037
GGGCACCC: -0.304
ACTCCAGC: -0.165
AAGACCCG: -0.152
AGCGAGAA: 0.096
AGCAGTTC: -0.0056
TTGGCAAA: 0.223

Set 7
Target: Histone acetyltransferase KAT6A, winged helix 2, GST fusion (KAT6A, Homo sapiens, UniProt Q92794, residues 85-181)
Technique: protein binding microarray
Molecule type: double-stranded DNA, one strand shown
Medium: in vitro
Concentration: not given
Setting: 8-mer, flanks averaged, mean of 2 arrays, mostly near background
Relative to: not given
Reading: higher = stronger binding
Quantity: E-score
Target sequence (chain): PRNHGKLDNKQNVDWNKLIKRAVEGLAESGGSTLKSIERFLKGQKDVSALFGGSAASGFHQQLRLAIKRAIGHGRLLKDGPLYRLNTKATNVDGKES
CCCCGTAC: -0.0913
ATAGCGGC: 0.104
GGACTCCC: -0.0586
AAAACCAA: -0.00594
AGCACAAG: -0.0879
AAAAAGGT: 0.0252
ATATCGTA: -0.154
AACCGCCT: 0.0625
AAGTTGAA: 0.0415
CCCTGCCA: 0.0427
AAGTACTG: -0.106
GAAGGCGC: 0.158
GTCACTTA: 0.144
ATAATCAT: -0.0159
CCGAAGAC: 0.114
GTTCGCCA: 0.0629
AAGGCTGC: -0.0107
GAGGGTCC: -0.0315
ACGTGTGG: -0.252

Further values, each from its own experiment
PhoQ, residues 284 288 289 292 302 303 SLGVVW  fold induction (PhoP, residues 12 14 15 18 19 AQCLL (Escherichia coli, UniProt P23836); Sort-seq, item: YFP reporter; E. coli; PhoQ-PhoP variant library, with: 10 µM Mg2+; relative to: high Mg2+ state, higher = stronger signaling): 10.7

For quick reference, copied from above (set 6):
TCTAGACA: 0.0967
ATTCCGGA: 0.0974
CACGCCAG: -0.348
CTACGGCC: -0.319
ACAACCCC: -0.229
CTTCCCCA: -0.202
CTTTAGCA: -0.037
GGGCACCC: -0.304
